Measurements from different studies.
Each line is one published result; not all experiments were run side by side. Values joined by “and” are separate records of one study, mostly repeats; a detail may differ. ± gives the spread as reported. Values after ≈ are worked out from the molar mass of the structure shown.

N[C@H](C(=O)O)[C@H]1C[C@@H]1C(=O)O — fluorescein ingestion (Drosophila melanogaster; liquid food feeding; 40 µg/mL, first instar larvae; baseline: solvent): 17.7%
CC(C)n1ncc2c(C(=O)NCC3(C)CNC3)cc(C3CC3)nc21 — cell protection (coxsackievirus A16; RD; 0.5 µM): 44.8% and 44.3%
CC(=O)NCC(=O)O — log2 fold change (binding, MIDAS equilibrium dialysis LC-MS; A2AR-BRIL thermostabilized; concentration not given; baseline: no-protein control): -0.015
Cc1cc(OC(C)C)ccc1C(=O)C(C)(C)NC(=O)c1sccc1C — EC50 (basidiomycetes and oomycetes; mycelial growth): > 50 µg/mL
CC(=O)NC[C@H]1CN(c2ccc(N3CCOCC3)c(F)c2)C(=O)O1 — MBC (Staphylococcus aureus; broth microdilution; methicillin-susceptible isolates): 8 µg/mL (≈ 23.7 µM)
O=c1[nH]cnc2c1ncn2[C@@H]1O[C@H](CO)[C@@H](O)[C@H]1O — log2 fold change (binding, MIDAS equilibrium dialysis LC-MS; A2AR-BRIL thermostabilized; concentration not given; baseline: no-protein control): -0.146
Cn1cc(-c2ccc(-c3cncc(Cl)c3N3CCC4(CCNC4=O)CC3)cc2)cn1 — log2 fold change (COLO 205; gene expression, microarray, item: HIST1H4I mRNA; concentration not given, 6 h; baseline: untreated cells): -2.64
COCC(=O)N1CCC[C@H](C(=O)NCc2nc(-c3cccc(C)c3)cs2)C1 — EC50 (Plasmodium falciparum; SYBR Green growth; asexual blood-stage parasites, 3D7; 72 h): > 5000 nM
C[C@@H]1[C@H](O)[C@@H](C)/C=C/C=C/C=C/C=C/C=C/C=C/C=C/[C@H](O[C@@H]2O[C@H](C)[C@@H](O)[C@H](N)[C@@H]2O)C[C@@H]2O[C@](O)(C[C@@H](O)C[C@@H](O)[C@H](O)CC[C@@H](O)C[C@@H](O)CC(=O)O[C@H]1C)C[C@H](O)[C@H]2C(=O)O — anti-leishmanial effect difference (Leishmania major; promastigotes; 24 h, unit not given; baseline: compound minus Glu): 18.6
CN1CCC[C@H](OCC(=O)N2CCC[C@H](C(=O)NCc3nc(-c4ccc(C(F)(F)F)cc4)cs3)C2)C1 — EC50 (Plasmodium falciparum; SYBR Green growth; asexual blood-stage parasites, 3D7; 72 h): 25 ± 3.6 nM
COC(=O)[C@@H](NCc1cc2ccccc2nc1OCc1ccccc1)C(C)C — growth (Pseudomonas aeruginosa; 128 µg/mL, added: pentamidine 50 µM; baseline: control): 91.9%
CCOCC(=O)N1CCC[C@H](C(=O)NCc2nc(-c3ccccc3)cs2)C1 — EC50 (Plasmodium falciparum; SYBR Green growth; asexual blood-stage parasites, 3D7; 72 h): 37 ± 3.2 nM
Nc1nc(-c2ccccc2)nc2[nH]nc(Nc3ccc(C(F)(F)F)cc3)c12 — clinical score (coxsackievirus B3; 31-1-93, NMRI mice, CVB3 chronic myocarditis; oral, 100 mg/kg twice daily, day 7, dosed days 1 to 7, score scale 0 to 7; direction not given): 0.22

For quick reference, copied from above:
O=c1[nH]cnc2c1ncn2[C@@H]1O[C@H](CO)[C@@H](O)[C@H]1O — log2 fold change (binding, MIDAS equilibrium dialysis LC-MS; A2AR-BRIL thermostabilized; concentration not given; baseline: no-protein control): -0.146
COCC(=O)N1CCC[C@H](C(=O)NCc2nc(-c3cccc(C)c3)cs2)C1 — EC50 (Plasmodium falciparum; SYBR Green growth; asexual blood-stage parasites, 3D7; 72 h): > 5000 nM
